# Measurements of several laboratories.
# Each numbered part is a random draw from the data of one study; scales do not carry over between parts. Values joined by “and” are separate records of one study, mostly repeats; a detail may differ.
# Sequence of UniProt P31749 (whole entry, looked up): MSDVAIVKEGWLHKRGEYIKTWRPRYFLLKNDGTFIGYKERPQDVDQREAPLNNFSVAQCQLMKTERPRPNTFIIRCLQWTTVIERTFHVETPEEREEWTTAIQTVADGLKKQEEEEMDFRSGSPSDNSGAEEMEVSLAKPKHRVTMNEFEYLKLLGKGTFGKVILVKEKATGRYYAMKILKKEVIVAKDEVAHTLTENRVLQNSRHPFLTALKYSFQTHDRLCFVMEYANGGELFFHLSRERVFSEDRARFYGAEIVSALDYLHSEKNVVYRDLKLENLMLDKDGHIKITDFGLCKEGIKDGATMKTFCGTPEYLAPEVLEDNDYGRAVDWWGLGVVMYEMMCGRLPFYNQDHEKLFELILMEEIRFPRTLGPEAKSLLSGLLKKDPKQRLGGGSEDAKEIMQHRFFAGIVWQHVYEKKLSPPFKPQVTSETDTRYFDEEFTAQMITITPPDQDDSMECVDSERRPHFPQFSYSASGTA
# Sequence of UniProt Q13976 (whole entry, looked up): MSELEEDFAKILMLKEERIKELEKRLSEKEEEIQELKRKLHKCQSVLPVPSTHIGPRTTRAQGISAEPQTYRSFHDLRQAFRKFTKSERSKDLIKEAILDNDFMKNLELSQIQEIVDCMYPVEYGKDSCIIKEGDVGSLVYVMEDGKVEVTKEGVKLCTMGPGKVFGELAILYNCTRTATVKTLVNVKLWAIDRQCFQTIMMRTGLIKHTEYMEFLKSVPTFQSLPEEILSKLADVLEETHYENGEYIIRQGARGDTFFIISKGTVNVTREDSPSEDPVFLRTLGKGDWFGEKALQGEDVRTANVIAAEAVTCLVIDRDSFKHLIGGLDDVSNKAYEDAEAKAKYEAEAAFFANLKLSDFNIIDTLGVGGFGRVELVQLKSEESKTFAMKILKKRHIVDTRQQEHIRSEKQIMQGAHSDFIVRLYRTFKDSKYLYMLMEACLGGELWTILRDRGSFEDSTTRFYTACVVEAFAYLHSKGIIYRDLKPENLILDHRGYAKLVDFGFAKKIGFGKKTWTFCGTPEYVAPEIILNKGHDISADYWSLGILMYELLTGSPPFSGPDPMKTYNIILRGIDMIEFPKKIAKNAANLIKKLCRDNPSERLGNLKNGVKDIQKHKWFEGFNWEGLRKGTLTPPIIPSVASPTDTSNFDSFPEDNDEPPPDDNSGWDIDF
# Sequence of UniProt P15056 (whole entry, looked up): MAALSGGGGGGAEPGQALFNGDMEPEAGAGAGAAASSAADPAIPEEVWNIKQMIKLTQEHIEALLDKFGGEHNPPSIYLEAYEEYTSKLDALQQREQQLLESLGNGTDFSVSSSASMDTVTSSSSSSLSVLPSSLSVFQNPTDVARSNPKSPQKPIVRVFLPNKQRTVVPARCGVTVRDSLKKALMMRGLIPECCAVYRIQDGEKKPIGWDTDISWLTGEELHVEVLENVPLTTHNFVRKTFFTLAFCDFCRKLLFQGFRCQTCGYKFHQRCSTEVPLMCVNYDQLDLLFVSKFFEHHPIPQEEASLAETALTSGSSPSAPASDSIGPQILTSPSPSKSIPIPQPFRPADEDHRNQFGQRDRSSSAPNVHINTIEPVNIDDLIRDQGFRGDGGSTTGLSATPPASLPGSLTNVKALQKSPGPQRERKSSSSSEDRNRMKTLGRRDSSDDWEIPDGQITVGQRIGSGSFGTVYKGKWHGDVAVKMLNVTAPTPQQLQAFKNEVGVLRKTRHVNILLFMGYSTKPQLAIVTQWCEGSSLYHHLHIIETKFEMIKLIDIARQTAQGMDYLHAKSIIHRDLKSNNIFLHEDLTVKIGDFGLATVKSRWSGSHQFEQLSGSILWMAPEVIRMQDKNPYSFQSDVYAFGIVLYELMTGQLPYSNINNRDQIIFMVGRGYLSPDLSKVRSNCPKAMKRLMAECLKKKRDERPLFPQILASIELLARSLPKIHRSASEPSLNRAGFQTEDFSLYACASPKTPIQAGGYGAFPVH
# Sequence of UniProt O00141 (whole entry, looked up): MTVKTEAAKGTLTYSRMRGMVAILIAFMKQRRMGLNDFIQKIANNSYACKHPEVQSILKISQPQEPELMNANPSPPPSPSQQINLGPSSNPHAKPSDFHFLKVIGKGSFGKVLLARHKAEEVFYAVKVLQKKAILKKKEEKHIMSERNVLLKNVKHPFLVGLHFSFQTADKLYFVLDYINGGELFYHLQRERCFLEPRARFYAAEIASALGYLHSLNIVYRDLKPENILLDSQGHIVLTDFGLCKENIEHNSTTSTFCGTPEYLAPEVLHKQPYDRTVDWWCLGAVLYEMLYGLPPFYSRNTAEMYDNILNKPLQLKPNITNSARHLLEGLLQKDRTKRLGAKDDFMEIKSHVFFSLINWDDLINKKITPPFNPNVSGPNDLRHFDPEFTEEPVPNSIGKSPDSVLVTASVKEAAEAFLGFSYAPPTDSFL
# Sequence of UniProt Q9NRH2 (whole entry, looked up): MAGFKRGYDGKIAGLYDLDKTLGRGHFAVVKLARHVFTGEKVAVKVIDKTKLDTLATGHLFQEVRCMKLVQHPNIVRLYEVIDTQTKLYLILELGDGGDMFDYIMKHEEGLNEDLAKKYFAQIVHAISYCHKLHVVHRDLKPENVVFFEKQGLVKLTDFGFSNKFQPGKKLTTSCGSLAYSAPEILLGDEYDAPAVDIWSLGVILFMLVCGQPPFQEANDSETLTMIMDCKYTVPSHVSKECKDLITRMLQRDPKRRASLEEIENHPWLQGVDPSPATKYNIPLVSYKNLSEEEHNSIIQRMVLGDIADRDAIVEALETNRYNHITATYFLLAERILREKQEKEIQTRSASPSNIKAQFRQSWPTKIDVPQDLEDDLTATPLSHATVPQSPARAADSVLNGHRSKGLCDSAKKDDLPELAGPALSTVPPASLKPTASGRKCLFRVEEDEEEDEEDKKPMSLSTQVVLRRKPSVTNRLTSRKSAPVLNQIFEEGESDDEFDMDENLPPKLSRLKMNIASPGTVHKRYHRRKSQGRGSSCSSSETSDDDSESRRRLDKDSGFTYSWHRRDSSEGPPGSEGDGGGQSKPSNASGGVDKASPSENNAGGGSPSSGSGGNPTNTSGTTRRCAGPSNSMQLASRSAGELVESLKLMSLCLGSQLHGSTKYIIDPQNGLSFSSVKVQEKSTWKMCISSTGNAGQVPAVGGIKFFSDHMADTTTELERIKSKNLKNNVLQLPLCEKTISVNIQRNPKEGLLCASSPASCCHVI
# Sequence of UniProt Q9Y243 (whole entry, looked up): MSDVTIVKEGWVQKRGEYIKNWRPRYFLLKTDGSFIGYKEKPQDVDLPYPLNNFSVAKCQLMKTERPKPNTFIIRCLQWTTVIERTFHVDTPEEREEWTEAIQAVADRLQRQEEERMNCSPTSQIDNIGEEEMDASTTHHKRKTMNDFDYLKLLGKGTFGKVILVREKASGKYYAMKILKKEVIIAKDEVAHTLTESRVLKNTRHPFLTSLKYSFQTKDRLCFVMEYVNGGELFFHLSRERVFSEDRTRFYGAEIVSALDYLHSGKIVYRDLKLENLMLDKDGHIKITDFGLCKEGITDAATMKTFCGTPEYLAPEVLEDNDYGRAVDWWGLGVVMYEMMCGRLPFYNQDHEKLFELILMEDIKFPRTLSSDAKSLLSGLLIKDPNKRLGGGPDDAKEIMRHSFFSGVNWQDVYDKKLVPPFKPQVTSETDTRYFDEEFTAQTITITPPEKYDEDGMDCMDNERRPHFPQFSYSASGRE
# Sequence of UniProt P06241 (whole entry, looked up): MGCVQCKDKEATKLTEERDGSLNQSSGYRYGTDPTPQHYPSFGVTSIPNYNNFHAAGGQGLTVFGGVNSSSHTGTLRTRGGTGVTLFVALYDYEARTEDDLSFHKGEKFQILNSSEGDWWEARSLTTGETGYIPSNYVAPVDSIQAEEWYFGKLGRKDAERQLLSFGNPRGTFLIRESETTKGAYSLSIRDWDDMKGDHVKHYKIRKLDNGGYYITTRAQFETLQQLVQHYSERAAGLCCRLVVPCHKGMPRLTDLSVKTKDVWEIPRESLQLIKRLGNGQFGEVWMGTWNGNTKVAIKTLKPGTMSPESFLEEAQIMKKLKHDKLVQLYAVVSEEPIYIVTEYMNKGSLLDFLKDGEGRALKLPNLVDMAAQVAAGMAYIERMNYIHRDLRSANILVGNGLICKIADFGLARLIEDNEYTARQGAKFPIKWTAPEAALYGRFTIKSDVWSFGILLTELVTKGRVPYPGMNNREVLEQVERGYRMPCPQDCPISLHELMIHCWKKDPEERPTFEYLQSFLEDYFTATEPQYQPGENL
# Sequence of UniProt Q9UBS0 (whole entry, looked up): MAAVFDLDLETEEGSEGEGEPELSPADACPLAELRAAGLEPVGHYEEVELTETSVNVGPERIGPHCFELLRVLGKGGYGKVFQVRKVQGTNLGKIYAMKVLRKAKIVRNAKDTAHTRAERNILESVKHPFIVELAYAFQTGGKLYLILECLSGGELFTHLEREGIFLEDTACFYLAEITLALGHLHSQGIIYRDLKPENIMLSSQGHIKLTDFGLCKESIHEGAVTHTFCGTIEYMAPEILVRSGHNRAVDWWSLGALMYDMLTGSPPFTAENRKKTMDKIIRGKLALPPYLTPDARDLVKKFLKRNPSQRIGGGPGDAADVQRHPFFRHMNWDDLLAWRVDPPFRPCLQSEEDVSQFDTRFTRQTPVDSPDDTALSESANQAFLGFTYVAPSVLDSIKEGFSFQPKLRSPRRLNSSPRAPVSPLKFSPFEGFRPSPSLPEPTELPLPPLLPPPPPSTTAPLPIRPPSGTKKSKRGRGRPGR

# Block 1
# Compound: O=C(Nc1cnn(-c2csc(C(=O)NC3COC3)c2)c1)Nc1c(F)cccc1Cl
# Read-out: enzyme activity
# Tested at: 5 µM
target,assay,how to read,remaining activity
"RPS6KB2 (Homo sapiens, UniProt Q9UBS0)",,baseline: untreated control,99.9%
"SNRK (Homo sapiens, UniProt Q9NRH2)",inhibitor,,98.8%
"AKT3 (Homo sapiens, UniProt Q9Y243)",,baseline: untreated control,97%
"cGMP-dependent protein kinase 1, isoform beta (PRKG1, Homo sapiens, UniProt Q13976)",,baseline: untreated control,100%
"FYN (Homo sapiens, UniProt P06241)",,baseline: untreated control,88.5%
"SGK1 (Homo sapiens, UniProt O00141)",,baseline: untreated control,91.7%
"DSTYK (Homo sapiens, UniProt Q6XUX3)",,baseline: untreated control,94.9%
"BRAF (Homo sapiens, UniProt P15056)",,baseline: untreated control,97.5%

# Block 2
# Cell line: mouse MPNST tumor cells
# Method: high-content immunofluorescence imaging
# Measured: nuclear SOX9
# Tested at: 10 µM
# Time: 12 h
# Notes: mean of 2 replicates
# Baseline: DMSO control
# Reading: higher = more nuclear SOX9
SMILES,nuclear SOX9 intensity
CC(=O)OCC(CCn1cnc2cnc(N)nc21)COC(C)=O,91.7 % of DMSO
CN1CCN(C(=O)c2nc3ccc(Cl)cc3[nH]2)CC1,115 % of DMSO
Cc1cc(C)cc(NC(=O)Nc2ccc(OS(N)(=O)=O)cc2)c1,94.9 % of DMSO
CCc1c2c(nc3ccc(O)cc13)-c1cc3c(c(=O)n1C2)COC(=O)[C@]3(O)CC,104 % of DMSO and 154 % of DMSO
CCc1c(C(=O)Nc2cc(S(=O)(=O)N(CC)CC)ccc2O)[nH]c(C)c1C(C)=O,124 % of DMSO
NC(=O)c1cn(Cc2c(F)cccc2F)nn1,86.9 % of DMSO
CN/C(=N\CCSCc1nc[nH]c1C)NC#N,98.3 % of DMSO and 95.2 % of DMSO
Nc1nc2c(ncn2COC(CO)CO)c(=O)[nH]1,101 % of DMSO and 93.4 % of DMSO

# Block 3
# Organism: Sarcocystis neurona
# Read-out: parasite growth
# Tested at: concentration not given
# Notes: secondary screen
Compound,inhibition [%]
CC[N+](C)(CC)CCOC(=O)C(O)(c1ccccc1)C1CCCCC1.[Br-] (stereo not shown),-26.1
COc1ccccc1N1CCN(CCCNc2cc(=O)n(C)c(=O)n2C)CC1.Cl,-30.8
CCN(CC)C(=O)C1(c2ccccc2)CC1CN.Cl (stereo not shown),-27.6
CN1[C@@H](CC(=O)c2ccccc2)CCC[C@H]1C[C@H](O)c1ccccc1.Cl,-24.9
O=C(O)c1cc2ccccc2c(Cc2c(O)c(C(=O)O)cc3ccccc23)c1O.OCCOCCN1CCN(C(c2ccccc2)c2ccc(Cl)cc2)CC1,-11.3
O=C(N[C@H](CO)[C@H](O)c1ccc([N+](=O)[O-])cc1)C(Cl)Cl,-6.8
NC(=O)OCC(COC(N)=O)c1ccccc1.O,-25.7
Cl.O=C(O)/C=C/c1ccc(Cn2ccnc2)cc1,-22.8

# Further values, each from its own experiment
SMILES,target,assay,test system,measurement,result
C=CC(=O)Nc1ccc2[nH]c(=O)n(C3CCN(Cc4ccc(-c5ccc6c(c5)NC(=O)CO6)cc4)CC3)c2c1,"RAC-alpha serine/threonine-protein kinase (AKT1, Homo sapiens, UniProt P31749)","target engagement, NanoBRET",live cells,EC50,1.92 µM and 1.4 µM and 7.26 µM

# Repeated from above (block 2):
SMILES,nuclear SOX9 intensity
Nc1nc2c(ncn2COC(CO)CO)c(=O)[nH]1,101 % of DMSO and 93.4 % of DMSO
